Published values collected from several papers.
Numbered parts are unrelated; each lists some results of a single study.

Block 1
Target: Fragile X messenger ribonucleoprotein 1, C-terminal low-complexity region (Fmr1, Mus musculus, UniProt P35922)
Method: RNA Bind-n-Seq
Form: RNA
Sample: in vitro
Concentration: 200 nM
Setting: whole 134-nt RNA, ends assumed
Together with: 150 mM LiCl
Relative to: input library
Direction: higher = stronger binding
Each molecule: 7-deaza-guanosine replaces G
`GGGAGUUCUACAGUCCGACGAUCCCUGUGCUACACAUCGUAUGUACCGAAUCGGGUUUUUUUGGUUUUUUUGGGUUUUUUUGGGAAAGUAUUAUGUUACGCCGUUCGGAUCUGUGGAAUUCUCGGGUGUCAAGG` gave a log2 enrichment of -1.29.
For `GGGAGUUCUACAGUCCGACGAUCGCAGGAAGUAAAAACAAAUGGAAAUGCUUCGGAUAGUGGCAGGGGUGGGGGUUGCUAAUGAAAGGGUGGGAUGGGAGUGGGUAAAGAGUUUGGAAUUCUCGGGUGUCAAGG`, the log2 enrichment was 1.17.
With `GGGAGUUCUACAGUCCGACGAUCUCAAGUCCUGUGCUACACAUCGUAUGUACCGAAUCGGUUUUUGGUUUUUGGUGGAAAGUAUUAUGUUACGCCGUUCGGAUCUGCACUUCCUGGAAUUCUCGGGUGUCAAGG` the log2 enrichment was -1.31.
`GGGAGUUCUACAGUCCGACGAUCAGUCCUGUGCUACACAUCGUAUGUACCGAAUCGGUUUUUGGGUUUUUGGGUUUUUGGGAAAGUAUUAUGUUACGCCGUUCGGAUCUGCACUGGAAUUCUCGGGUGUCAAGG` has a log2 enrichment of -1.18.
The log2 enrichment of `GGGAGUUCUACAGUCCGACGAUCACCAUGCAGGUGGGCAUCUUUGGGAAGUGGGGCAAGGGGGGGAUAGGGAGGGGGGUAACACUUUGGGAAAAAGUGGUCCCAGGUCGUUUCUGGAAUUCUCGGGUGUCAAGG` is reported as 1.69.
The log2 enrichment of `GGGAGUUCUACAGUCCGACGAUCUGGGAGGUGGAUUUUGUUUAUUUAUUUAGCUCAUUUCCAGGGGUGGGAAUUUUUUUUUAAUAUGUGUCAUGAAUAAAGUUGUUUUUGAAAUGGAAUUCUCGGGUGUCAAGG` is reported as -0.523.
`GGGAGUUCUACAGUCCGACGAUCUGCGAGGUGGAUUUUGUUUAUUUUUUUAGCUCAUUUCCAGGGGUGGGAAUUUUUUUUUAAUAUGUGUCAUGAAUAAAGUUGUUUUUGAAAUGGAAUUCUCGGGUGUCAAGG` has a log2 enrichment of 0.583.
With `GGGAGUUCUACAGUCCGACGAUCAGUCCUGUGCUACACAUCGUAUGUACCGAAUCGGGCCCCCGGCCCCCGGCCCCCGGGGAAAGUAUUAUGUUACGCCGUUCGGAUCUGCACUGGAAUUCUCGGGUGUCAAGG` the log2 enrichment was -0.377.
`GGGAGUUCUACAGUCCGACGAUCUCCUGUGCUACACAUCGUAUGUACCGAAUCGGGUUUUUUGGUUUUUUGGGUUUUUUGGGGAAAGUAUUAUGUUACGCCGUUCGGAUCUGCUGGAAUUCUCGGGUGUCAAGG` has a log2 enrichment of -1.59.
For `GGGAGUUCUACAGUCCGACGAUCUGAGUAGAUCUAGAAAUGACAGUAUGACUUUGUUUCUAACAGCUCCAAAAUGGAUCAAAAUGUUUGUUUUGGAUGAAGCAGAUGAAAUGUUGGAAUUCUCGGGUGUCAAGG`, the log2 enrichment was -4.36.
The log2 enrichment of `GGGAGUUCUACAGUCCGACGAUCUCCUCAAGUCCUGUGCUACACAUCGUAUGUACCGAAUCGGUUUGGAGGUGGAAAGUAUUAUGUUACGCCGUUCGGAUCUGCACUUCCAGCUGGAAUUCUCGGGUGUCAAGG` is reported as -1.39.

Block 2
Target: RNA binding protein fox-1 homolog 2, RRM domain, GST-SBP tag (RBFOX2, Homo sapiens, UniProt O43251-10, residues 100-194)
Method: RNA Bind-n-Seq
Form: RNA
Sample: in vitro
Concentration: 365 nM
Setting: natural RNA segment, single round, ends assumed
Relative to: no-protein control
Direction: higher = stronger binding
`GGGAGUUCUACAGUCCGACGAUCAUGGAAGUCCGUCAGGGAACAGGUAGUUCUAAGUGCGUGGCUAAAUGAUUUGGACAAGCUCCUGUGUGUGCUGAGACCUGGCUGGCCAGCUGCUAGAGGGGAAAAACAAUUGGAAUUCUCGGGUGCCAA` — result for “RBNS enrichment (R)”: 0.627.
Under “RBNS enrichment (R)”, `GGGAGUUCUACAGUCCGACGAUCACAUUUGCCAGAAUAUAAGAGUUUUGUUUUAAAUACAGUCUUGUUAGGAUUUUACGUUAUUGUUAUUAUGGAAAGUGAUUGUGAUGCUAUUUAUCUUCAGGGUCACUCUGUGGAAUUCUCGGGUGCCAA` is recorded as 0.845.
For `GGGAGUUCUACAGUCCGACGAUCUGGGAUCUCAGGAGGGCAGCCACGGAGUGGGGAGGCCCCAGAUGCGCUGUGCCAAAGCCAGGUCCGAGGCCAAAGUUCUCCCUGCCAUCCUUGGUGCCGUCCUGCCCCUUUGGAAUUCUCGGGUGCCAA`, “RBNS enrichment (R)” read 0.892.
Under “RBNS enrichment (R)”, `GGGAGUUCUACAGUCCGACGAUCUUAGGAAAUAAUGUUUGUAAUAAACUUAACUAUGUUACAUAUCAACAGGCAAAAAUAUAGAAUGUUACAUAGUGUUGUGUGAUUAAAUUAUAGUUCCUGCUGUUAACAUUUGGAAUUCUCGGGUGCCAA` is recorded as 0.488.
`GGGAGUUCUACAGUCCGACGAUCAGCCUUCGCACUCAAUGCCAACUUUUUGUUACAGAUUAAUUUUUCCAUAAAACCAUUUUUUGAACCAAUCAGUAAUUUUAAGGUUUUGUUUGUUCUAAAUGUAAGAGUUCUGGAAUUCUCGGGUGCCAA`: “RBNS enrichment (R)” 0.499.
Under “RBNS enrichment (R)”, `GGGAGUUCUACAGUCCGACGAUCGCAGCAGUGUUGUUUUGUUUGAAGUGCACACUCUAUGGUACGAGGUGUUUAGUAUACCCAAGCAGAUAGGUGUCGAUCGAACAGGAGCAGGGAGAAUACUUCCAACAGUUUGGAAUUCUCGGGUGCCAA` is recorded as 0.645.
Under “RBNS enrichment (R)”, `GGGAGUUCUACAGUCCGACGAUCGUUGUUCUUAUUCCUAGGUCAGGGUAGUACAAAUUACGGAAAGAGCCAGCGACGUGGUGGUCAUCAGAAUAACUACAAGCCAUACUGAGAGGCAGCAGGAGCGGCCGAGUUGGAAUUCUCGGGUGCCAA` is recorded as 0.718.
`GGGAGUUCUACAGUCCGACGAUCGAUCUCUUGCCAGUUGUGAAUAAGACAGAAAGACUGUGUUCUCUGUUACGUAAGAAGGGUCUUUGGUAGAAGAAAUUGCUCGUGUUUACACAGCUGUGGAUGCCAUGAAGUGGAAUUCUCGGGUGCCAA`: “RBNS enrichment (R)” 1.09.
Under “RBNS enrichment (R)”, `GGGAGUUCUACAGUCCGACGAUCCAUGUCAUAACUAUCUAUACAGUAUAUAUUAAAAGAAAGCUUGUACUGUAUCUUAUUUGAUGAUAUUUAUUUUCUCUGCCAAGCUGUAUAGUAAAAGGAAAAUAAGUCACUGGAAUUCUCGGGUGCCAA` is recorded as 0.52.
`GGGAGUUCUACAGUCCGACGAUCUUGUGGUUAGUUUGAAAAACAGACAUGGAUAAACUAAAAUGCUUCAUACUUUAUAAGUAAAGCGCUAUGAAUGCUGUGGAGACCAAGGUGAAAUAAAUAGUGCAAAUGUGUGGAAUUCUCGGGUGCCAA`: “RBNS enrichment (R)” 1.96.
For `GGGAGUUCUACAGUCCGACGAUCAGGGACACCUGGGCCAAUGGGCCAUCUGGACCAAAGGUGGGGUGUGGGGCCCUGGAUGGCAGCUCUGGCCCAGACAUGAAUACCUCGUGUUCCUCCUCCCUCUAUUACUGUGGAAUUCUCGGGUGCCAA`, “RBNS enrichment (R)” read 1.03.
Under “RBNS enrichment (R)”, `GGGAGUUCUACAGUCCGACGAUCGUUCUUUGAUUUUAAAAAGAAAAACCUUUUCCAUCAUAUUAAAGAGAAAAUUAGCUAUGGGAAGAUAUUAAAAGAUUUCUUAGAUGGAUGUGGUUAAAAUUUUUGUAAUAUGGAAUUCUCGGGUGCCAA` is recorded as 1.5.

Block 3
Target: Histone acetyltransferase KAT6A, both winged helices, GST fusion (KAT6A, Homo sapiens, UniProt Q92794, residues 1-181)
Method: protein binding microarray
Form: double-stranded DNA, one strand shown
Sample: in vitro
Concentration: not given
Setting: 8-mer, flanks averaged, mean of 2 arrays, mostly near background
Relative to: not given
Direction: higher = stronger binding
Residues (chain): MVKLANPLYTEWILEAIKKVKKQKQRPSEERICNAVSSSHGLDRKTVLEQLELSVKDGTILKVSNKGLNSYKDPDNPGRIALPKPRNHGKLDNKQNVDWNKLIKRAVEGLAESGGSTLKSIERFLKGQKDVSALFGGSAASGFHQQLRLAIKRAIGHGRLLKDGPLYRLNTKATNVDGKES
`AGGTCCTG` gave an E-score of -0.113.
With `CCTGCTTC` the E-score was -0.0457.
With `GGCCCGCA` the E-score was 0.179.
`GCTGGACA` gave an E-score of -0.133.
`CGAGGCCA` gave an E-score of -0.178.
With `ATCGACAC` the E-score was -0.0412.
For `CACGCAAG`, the E-score was -0.00458.
With `AGCAGTTA` the E-score was -0.147.
`AATATTCG` gave an E-score of 0.0542.
`ATCCACTC` gave an E-score of -0.231.
`CATGACCG` gave an E-score of 0.135.
`GTCCGAAA` gave an E-score of 0.029.
`ACTCCGCG` gave an E-score of 0.233.
`AGGATTGA` gave an E-score of -0.201.
`ATCCTCTA` gave an E-score of -0.249.
With `ACAAAAAC` the E-score was 0.00877.
`GGGACGCA` gave an E-score of 0.0269.
`AACCGACA` has an E-score of 0.0683.
The E-score of `ACACTCCC` is reported as -0.0323.
For `GTGCTATA`, the E-score was -0.0885.
`CGTTGGAG` has an E-score of 0.127.
The E-score of `GCCTCTAC` is reported as -0.113.
The E-score of `ACGAACGG` is reported as 0.254.
`TCCCTTCA` has an E-score of -0.216.
For `CATATTTA`, the E-score was 0.0249.

Block 4
Target: Prothrombin, mature alpha-thrombin (F2, Homo sapiens, UniProt P00734)
Method: aptamer microarray, sandwich
Form: DNA with 2'F-ANA
Sample: in vitro
Concentration: 200 nM
Setting: whole 15-mer aptamer, many near background
Together with: Cy3 exosite-II aptamer, 400 nM
Direction: higher = stronger binding
Sequence: GGTTGGTGTGGTTGG
`2'F-ANA at 2 4 8 9 12 15`: “mean fluorescence intensity” 549 a.u.
`2'F-ANA at 1 2 3 9 10 15`: “mean fluorescence intensity” 64.8 a.u.
`2'F-ANA at 1 2 3 4 6 8 10 13 15` — result for “mean fluorescence intensity”: 50.5 a.u.
Under “mean fluorescence intensity”, `2'F-ANA at 2 5 7 8 9 11 12 13` is recorded as 96 a.u.
For `2'F-ANA at 3 4 5 8 9 11 12 13`, “mean fluorescence intensity” read 120 a.u.
Under “mean fluorescence intensity”, `2'F-ANA at 1 4 7 9 12 14 15` is recorded as 64.1 a.u.
For `2'F-ANA at 2 7 9 10 13 14`, “mean fluorescence intensity” read 88.9 a.u.
`2'F-ANA at 2 4 5 6 8 9 11 12 13` — result for “mean fluorescence intensity”: 155 a.u.
Under “mean fluorescence intensity”, `2'F-ANA at 2 3 5 6 7 8 10 12 13 15` is recorded as 90.1 a.u.
`2'F-ANA at 1 3 6 8 9 10 14`: “mean fluorescence intensity” 58.8 a.u.
Under “mean fluorescence intensity”, `2'F-ANA at 1 2 5 6 8 9 13 14 15` is recorded as 50.9 a.u.
`2'F-ANA at 5 6 10` — result for “mean fluorescence intensity”: 42.8 a.u.
`2'F-ANA at 2 9 10 11 13 14 15` — result for “mean fluorescence intensity”: 74.1 a.u.
`2'F-ANA at 2 4 7 8 10 11 12 14 15`: “mean fluorescence intensity” 65.8 a.u.
`2'F-ANA at 1 2 4 7 8 12 14 15` — result for “mean fluorescence intensity”: 72.8 a.u.
`2'F-ANA at 1 2 3 4 6 9 11 12 14 15` — result for “mean fluorescence intensity”: 62.3 a.u.
For `2'F-ANA at 2 5 6 9 11 12 13 14 15`, “mean fluorescence intensity” read 49 a.u.
For `2'F-ANA at 1 2 3 5 7 9 10 14`, “mean fluorescence intensity” read 47.6 a.u.
Under “mean fluorescence intensity”, `2'F-ANA at 3 5 6 7 10 11 12 13 14 15` is recorded as 56.9 a.u.
`2'F-ANA at 2 3 6 7 8 9 10 11`: “mean fluorescence intensity” 334 a.u.
`2'F-ANA at 3 4 5 11 12 14` — result for “mean fluorescence intensity”: 56.6 a.u.
For `2'F-ANA at 3 13 15`, “mean fluorescence intensity” read 1010 a.u.
`2'F-ANA at 1 2 4 5 6 7 10 13 14 15` — result for “mean fluorescence intensity”: 48 a.u.
`2'F-ANA at 1 2 5 6 7 8 9 10 12 14 15` — result for “mean fluorescence intensity”: 52.8 a.u.
`2'F-ANA at 1 2 4 6 7 11 14` — result for “mean fluorescence intensity”: 50.8 a.u.

Repeated from above (block 3):
`ATCCTCTA` gave an E-score of -0.249.
`AACCGACA` has an E-score of 0.0683.
`AGGTCCTG` gave an E-score of -0.113.
`ACTCCGCG` gave an E-score of 0.233.
`GTCCGAAA` gave an E-score of 0.029.
`CGAGGCCA` gave an E-score of -0.178.
`AGGATTGA` gave an E-score of -0.201.
The E-score of `ACACTCCC` is reported as -0.0323.
`GCTGGACA` gave an E-score of -0.133.
`CGTTGGAG` has an E-score of 0.127.
With `GGCCCGCA` the E-score was 0.179.
